Measured values from different studies.
Compare with care: the assays were run in different laboratories. ± marks the error that the study gave. Bridges are numbered along the chain shown (N, C = ends). Where no end group is shown, it is not given here.

Under “reduction in mPAP”, `Cc1ccc(NC(=O)c2ccc(CN3CCN(C)CC3)cc2)cc1Nc1nccc(-c2cccnc2)n1` is recorded as 27% (rat, SU5416/hypoxia PAH model; oral, 15.0 mg/kg once daily, day 49; baseline: vehicle).
For `C=CCN(/C=C1/C(=O)O[C@H](COC)[C@@]2(C)C1=C(O)C(=O)C1=C2[C@H](OC(C)=O)C[C@]2(C)C(=O)CC[C@@H]12)CC=C`, “additional cycles with disease control” read no more than 10 cycles (patients, incurable solid tumours; dose not given, single agent after docetaxel discontinued).
Under “inhibition of platelet aggregation”, `NCC(=O)Nc1cncc(-c2nn3c(=O)cc(N4CCNCC4)nc3s2)c1` is recorded as 90.1% (light transmission aggregometry; stable CAD patients on aspirin, blood ex vivo; subcutaneous, 0.075 mg/kg, 15 min post-dose, with: ADP 20 µM).
`CC(C)(C)OC(=O)NCC(=O)OC1CCC2(C)C(C(O)CC3(C)C2CC(O)C2C(C4(C)CCCC(C)(C)O4)CCC23C)C1(C)C` (stereo not drawn) — result for “tumour growth inhibition”: 76.2% (item: tumour weight; nude mouse, HeLa xenograft; intraperitoneal, 50 mg/kg, every 2 days for 20 days).
The thrombus weight of `CC[C@@H](C(=O)Nc1ccc(C(N)=O)c(F)c1)n1cc(OC)c(-c2cc(Cl)ccc2-n2cc(C(F)(F)F)nn2)cc1=O` is reported as 4.5 mg (New Zealand White rabbit, FeCl2 jugular injury; intravenous, 0.6 mg/kg).
The tumour-to-background ratio of `O=C([O-])CN(CCN(CC(=O)[O-])Cc1cc(CCC(=O)NCCCCCC(=O)NCCCC[C@H](NC(=O)N[C@@H](CCC(=O)O)C(=O)O)C(=O)O)ccc1O)Cc1cc(CCC(=O)O)ccc1O.[18F-].[Al+3]` is reported as 1 to 2 (microPET/CT; PC-3 xenograft, PSMA-negative, NSG mouse; baseline: muscle and liver).
For `C[C@H]1[C@H](OC(=O)CCC(=O)O)O[C@@H]2O[C@@]3(C)CC[C@H]4[C@H](C)CC[C@@H]1[C@@]24OO3`, “tumour growth inhibition” read 21.5% (bioluminescence; mouse, Hep3B-Luc orthotopic xenograft; 50 mg/kg daily, 24 days; baseline: vehicle).
With `CC(C)C[C@H](NC(=O)[C@H](CO)NC(=O)[C@H](CCCNC(=N)N)NC(=O)[C@H](CC(=O)O)NC(=O)[C@H](CCC(=O)O)NC(=O)[C@H](C)NC(=O)[C@@H]1CCCN1C(=O)[C@H](C)NC(=O)[C@H](CCC(=O)O)NC(=O)[C@@H]1CCCN1C(=O)[C@@H]1CCCN1)C(N)=O` the DOPAC level was 1570 ± 186 ng/g (HPLC-EC; F344 rat, normal, striatum; intranasal, 1000 µg, 5 days/week for 3 weeks).
`Cc1ccn2c(Nc3ccc(Cl)cc3)c(-c3ccc(S(C)(=O)=O)cc3)nc2c1`: “pain score AUC” “decreased” (formalin test; male Wistar rat; intraperitoneal, 40 mg/kg; baseline: control group).
The step-through latency of `O=C(NCc1ccc(F)cc1)C(=O)[C@H](Cc1ccccc1)NC(=O)[C@H]1CCC(=O)N1Cc1ccccc1` is reported as 193 ± 42.8 s (passive avoidance; mouse, scopolamine-induced amnesia; ip, 10 mg/kg, with: scopolamine 1 mg/kg ip).
The fold induction of `C[C@@H]1COCCN1c1cc([C@]2(O)C[C@H]3CC[C@@H](C2)O3)c2cnn(-c3cc[nH]n3)c2n1` is reported as 8.1 (item: phospho-KAP1 Ser824; mouse, LoVo xenograft, tumour; 7 mg/kg daily for 7 days, 24 h after last dose; baseline: background).
For `CCCC[C@H](NC(C)=O)C(=O)N[C@H]1CC(=O)NCCCC[C@@H](C(=O)O)NC(=O)[C@H](Cc2c[nH]c3ccccc23)NC(=O)[C@H](CCCNC(=N)N)NC(=O)[C@@H](Cc2ccccc2)NC(=O)[C@H](Cc2c[nH]cn2)NC1=O`, “body weight loss” read 2.1 kg (obese women; sc, 2.5 mg three times daily, 16 days; baseline: placebo).
For `cilengitide`, “muscularis propria thickness” read 80 ± 4 µm (Sprague-Dawley rats, TNBS colitis, colon; ip, 18 mg/kg/day, 42 d).
`Cc1cccc2c1NC(=O)[C@@H](NC(=O)[C@H](CCC(F)(F)F)[C@H](CCC(F)(F)F)C(N)=O)N=C2c1cccc(F)c1`: “Hes1 mRNA level decrease” greater than 50% (RT-qPCR; human, peripheral blood; 1.2 mg and 1.5 mg once daily, 2 weeks; baseline: baseline).
For `insulin degludec`, “AUC(GIR) mean estimate” read 2960 mg/kg (euglycaemic clamp; healthy human subjects; subcutaneous, deltoid, 0.4 U/kg, 0 to 24 h).
The Kd of `Ac-DMQD-aldehyde (N-acetyl, C-aldehyde)` is reported as 1000 to 2000 nM (active-site labeling, inhibitor, YV(bio)KD-aomk probe labeling, item: caspase-3 p20; Jurkat cell extract; with: caspase-8).
For `COCCc1ccc(OCC(O)CNC(C)C)cc1` (stereo not drawn), the Na+/K+-ATPase activity was 11 ± 0.74 U/mL (rats, adrenaline arrhythmia, myocardium; intragastric, 2.57 g/kg daily, 14 days).
With `GKWHCTTKFPHHYCLYG (disulfide 5-14 (inferred)) (cyclic, disulfide)` the fluorescence intensity was 3.13 fold (β2-AR transgenic mouse, left ventricle lysate; intravenous, 0.5 mg/kg, 4 h; baseline: nontransgenic mice).
Under “plasma glucose AUC(0-1 h)”, `insulin glulisine` is recorded as 149 mg·h/dL (obese type 2 diabetes patients; subcutaneous, 0.2 U/kg, within 2 min before 692 kcal meal).
`Oc1cccc2ccccc12` gave a vitellogenin level of 2.2 ± 1.3 ng/mg liver (fish short-term reproduction; Oryzias latipes, male, liver; 80.0 µg/L, 21 d).
For `Polymyxin B`, the IL-6 release was 22 ± 12% (human whole blood; 125 ng/mL, 4 h, 37 °C, with: E. coli LPS 0.5 ng/mL; baseline: LPS without compound).
Under “increase in contraction force”, `C[C@@H]1CC(=O)NN=C1c1ccc(N)cc1` is recorded as 312 ± 118 mg (guinea pig papillary muscle; up to 30 µM, without forskolin; baseline: baseline).
For `CC(C)=CCc1c(-c2ccccc2)n(CC=C(C)C)c2ccccc12`, the inhibition was 59.2% (RAW264.7; NO release, inhibitor, Griess; 50 µM, 20 h, LPS-stimulated).
`CCN(CC)c1ccc(/C=C2\NC(=O)NC2=O)cc1` — result for glycogen content: “increased” (Sprague Dawley rats, liver; ip, 5, 15, 25 mg/kg; baseline: vehicle).
`c1ccc(-c2cc3ccccc3[nH]2)cc1` has an inhibition of 79% (RAW264.7; NO release, inhibitor, Griess; 50 µM, 20 h, LPS-stimulated).
`Cc1ccc(CN2CCN(C(=O)/C=C/c3ccc(O)cc3O)CC2)cc1` gave a pigmentation inhibition of 16.3 ± 2.13% (zebrafish AB wild type, head melanin; 60 µM, 45 h, from 6 hpf).
`Ac-CSNLSTCXLGKLSQDLHRLQTYPKTDVGANAP-NH2 (N-acetyl, C-amide)` — result for plasma insulin: “increased” (peptide, ZDF rats; 1.5 and 3 nmol/kg every 3 days, 8 weeks; baseline: vehicle).
Under “brain MDA level”, `CC1(C)C2CCC1(C)C(OC(=O)C(O)Cc1ccc(O)c(O)c1)C2` (stereo not drawn) is recorded as “decreased” (C57BL/6 mouse, cerebral ischemia-reperfusion; iv, 12 mg/kg; baseline: untreated model).
`Cc1ccc(NC(=O)c2ccc(CN3CCN(C)CC3)cc2)cc1Nc1nccc(-c2cncc(-c3oncc3C)c2)n1` — result for “MDS-UPDRS part I score”: 8.2 ± 2 (mild-to-moderate Parkinson's disease patients; oral, 50 mg once daily, pre-dose baseline, on anti-Parkinson medication; direction not given).
`COCCOCCOc1ccc(C2=N[C@@](C)(C(=O)O)CS2)c(O)c1`: “duration of iron excretion” greater than 48 h (bile duct-cannulated rats, non iron-overloaded, bile; oral, 300 µmol/kg).

For quick reference, copied from above:
`Cc1ccc(NC(=O)c2ccc(CN3CCN(C)CC3)cc2)cc1Nc1nccc(-c2cncc(-c3oncc3C)c2)n1` — result for “MDS-UPDRS part I score”: 8.2 ± 2 (mild-to-moderate Parkinson's disease patients; oral, 50 mg once daily, pre-dose baseline, on anti-Parkinson medication; direction not given).
For `C[C@H]1[C@H](OC(=O)CCC(=O)O)O[C@@H]2O[C@@]3(C)CC[C@H]4[C@H](C)CC[C@@H]1[C@@]24OO3`, “tumour growth inhibition” read 21.5% (bioluminescence; mouse, Hep3B-Luc orthotopic xenograft; 50 mg/kg daily, 24 days; baseline: vehicle).
`Oc1cccc2ccccc12` gave a vitellogenin level of 2.2 ± 1.3 ng/mg liver (fish short-term reproduction; Oryzias latipes, male, liver; 80.0 µg/L, 21 d).
The step-through latency of `O=C(NCc1ccc(F)cc1)C(=O)[C@H](Cc1ccccc1)NC(=O)[C@H]1CCC(=O)N1Cc1ccccc1` is reported as 193 ± 42.8 s (passive avoidance; mouse, scopolamine-induced amnesia; ip, 10 mg/kg, with: scopolamine 1 mg/kg ip).
